Assay results pooled from the literature.
Numbered parts are unrelated; each lists some results of a single study. Changes are numbered by the printed parent chain.
Sequence of UniProt Q9Y2X8 (whole entry, looked up): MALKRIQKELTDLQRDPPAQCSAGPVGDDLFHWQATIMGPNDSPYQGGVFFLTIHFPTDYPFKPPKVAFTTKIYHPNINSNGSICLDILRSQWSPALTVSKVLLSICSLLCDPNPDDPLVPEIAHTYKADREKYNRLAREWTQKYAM

Sample 1
Target: Histone acetyltransferase KAT6A, winged helix 1, GST fusion (KAT6A, Homo sapiens, UniProt Q92794, residues 1-85)
Technique: protein binding microarray
Form: double-stranded DNA, one strand shown
Sample: in vitro
Tested at: not given
Setting: 8-mer, flanks averaged, mean of 2 arrays, mostly near background
Relative to: not given
Direction: higher = stronger binding
Construct (chain): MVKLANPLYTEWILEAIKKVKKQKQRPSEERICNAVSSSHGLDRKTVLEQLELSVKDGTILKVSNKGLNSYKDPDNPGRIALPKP
With `AACGCTCC` the E-score was 0.0191.
The E-score of `GAAAGATC` is reported as -0.0454.
With `AGTTCGAT` the E-score was -0.267.
`ACTAGAGG` has an E-score of -0.125.
With `ATGATAGG` the E-score was -0.158.
With `ACACGTCA` the E-score was -0.106.
With `GTTGCACA` the E-score was -0.165.
For `AACCATCT`, the E-score was -0.0638.

Sample 2
Target: CCNB1, cyclin fold, Cln2 fusion (human)
Technique: yeast growth competition, sequencing
Sample: yeast
Setting: strong parent motif
Relative to: not given
Direction: higher = stronger binding
Parent: viral docking peptide; TSVRRALFTGGSD; partner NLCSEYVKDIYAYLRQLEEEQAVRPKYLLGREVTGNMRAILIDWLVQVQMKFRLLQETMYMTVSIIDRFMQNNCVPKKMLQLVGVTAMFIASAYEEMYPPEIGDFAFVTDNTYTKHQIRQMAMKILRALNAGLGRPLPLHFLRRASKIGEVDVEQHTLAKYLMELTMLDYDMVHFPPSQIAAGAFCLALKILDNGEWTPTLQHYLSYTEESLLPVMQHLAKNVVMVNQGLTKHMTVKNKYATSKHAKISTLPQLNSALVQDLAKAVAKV
Under “normalised enrichment score”, `R5M` is recorded as 1.06.
Under “normalised enrichment score”, `V3K` is recorded as 0.494.
`L7A` — result for “normalised enrichment score”: 0.181.
For `A6H`, “normalised enrichment score” read 0.55.
`A6K`: “normalised enrichment score” 1.56.
Under “normalised enrichment score”, `F8E` is recorded as -0.101.
`R4V` — result for “normalised enrichment score”: 3.25.
Under “normalised enrichment score”, `A6Y` is recorded as -0.0941.
For `R5Q`, “normalised enrichment score” read 1.03.
`S2M` — result for “normalised enrichment score”: 1.54.
`L7Y`: “normalised enrichment score” 0.456.
For `S12W`, “normalised enrichment score” read 1.96.
For `A6P`, “normalised enrichment score” read 0.382.
`T9F`: “normalised enrichment score” 3.13.
`S2N` — result for “normalised enrichment score”: 2.24.
Under “normalised enrichment score”, `A6F` is recorded as 0.216.
`R4F` — result for “normalised enrichment score”: 0.292.
For `V3L`, “normalised enrichment score” read 0.372.
`T9Q` — result for “normalised enrichment score”: 2.56.
Under “normalised enrichment score”, `V3D` is recorded as -0.0908.
Under “normalised enrichment score”, `T9P` is recorded as 1.79.
For `L7E`, “normalised enrichment score” read 0.167.
`S2H` — result for “normalised enrichment score”: 1.51.
For `S12F`, “normalised enrichment score” read 1.71.
`F8V` — result for “normalised enrichment score”: 0.0482.

Sample 3
Target: TAR DNA-binding protein 43, full length, His tag (TARDBP, Homo sapiens, UniProt Q13148, residues 1-414)
Technique: RNA Bind-n-Seq
Form: RNA
Sample: in vitro
Tested at: 20 nM
Setting: 6-mer, flanks averaged, single round
Together with: 150 mM KCl
Relative to: input library
Direction: higher = stronger binding
`AAGCAA`: “6-mer enrichment (R)” 0.672.
For `GCUACA`, “6-mer enrichment (R)” read 0.69.
Under “6-mer enrichment (R)”, `UGACAG` is recorded as 0.901.
`UGCCGA` — result for “6-mer enrichment (R)”: 0.817.
Under “6-mer enrichment (R)”, `GGUAUA` is recorded as 0.912.
Under “6-mer enrichment (R)”, `CGGAGG` is recorded as 3.67.
`UGUAGA`: “6-mer enrichment (R)” 0.954.
For `UAUUUC`, “6-mer enrichment (R)” read 0.582.

Sample 4
Target: HLA class I histocompatibility antigen, A alpha chain, allele A*25:01 (Homo sapiens, UniProt P04439)
Read-out: peptide-MHC binding
Form: peptide
Tested at: concentration not given
`AYDHGNVIL` — result for binding: “inactive”.
`TMMRHRREL`: binding “inactive”.
Under binding, `KVGFIMLFH` is recorded as “inactive”.

Sample 5
Target: RING finger protein unkempt homolog, zinc fingers 1-6, SBP tag (UNK, Homo sapiens, UniProt Q9C0B0, residues 30-357)
Sequence of UniProt Q9C0B0 (30-357, looked up): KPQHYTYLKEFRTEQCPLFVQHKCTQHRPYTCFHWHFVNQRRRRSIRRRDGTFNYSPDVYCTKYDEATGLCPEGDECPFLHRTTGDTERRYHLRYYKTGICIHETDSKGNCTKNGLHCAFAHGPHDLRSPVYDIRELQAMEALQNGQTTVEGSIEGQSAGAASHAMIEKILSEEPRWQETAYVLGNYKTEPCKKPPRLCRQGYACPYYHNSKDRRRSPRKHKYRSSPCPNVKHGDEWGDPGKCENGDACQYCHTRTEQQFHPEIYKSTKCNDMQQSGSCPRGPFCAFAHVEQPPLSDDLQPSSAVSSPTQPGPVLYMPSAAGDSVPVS
Technique: RNA Bind-n-Seq
Form: RNA
Sample: in vitro
Tested at: 100 nM
Setting: RNA with constant flanks, vertebrate orthologous sites, ends assumed
Relative to: input RNA pool
Direction: higher = stronger binding
`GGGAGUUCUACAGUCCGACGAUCAUUUAAAAUGUAGUUAGUUAUAUUUAAUGACCUCAUUCCUAAGUUCCUUUUUCAUUCAUGUAGCUUUCAUUUGUUAUUGCUGUUUGAAUAAUAUGAUUAAAUAGAAGGUUUGUGCCAGUACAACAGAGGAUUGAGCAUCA` has a bound/input enrichment of 0.492 ratio.
`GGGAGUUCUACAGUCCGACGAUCGAUGUAUUUAUACUGGCCAAACAUUUUUGACUUGUAUUUCUUUGUCCUUUUUUGGUAGUUCUCGUUGUUACUCGCACCAUUUUUAUGUCUCCUUCACUGAAGGGCUAGAGUUUUAACUUUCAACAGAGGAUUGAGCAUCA` gave a bound/input enrichment of 0.394 ratio.
`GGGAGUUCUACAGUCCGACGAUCAAAUUCCCCCAUUGUCACUGAGAACCACCAAAUCUGACUUUUACAUUUGGUCUCAGAAUUUAGGUUCCUGCCCUGUUGGGUUUUUUUUUGUUUUUUUAAACCGUUUUCAAAAGUUCUUAACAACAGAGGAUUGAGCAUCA` has a bound/input enrichment of 0.67 ratio.
For `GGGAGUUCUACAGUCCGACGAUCAAGAAAUGCUGGCUGCAAACCCUCAGGAUCGUCCAGAUGCUUUUGAACUAGAACUCAGAUUAGUACAAAUUGCAUUUAAAGAUAACAGCUGGGAAACGUGACACAUAUAUUGUUUGCAAACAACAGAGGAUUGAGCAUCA`, the bound/input enrichment was 1.37 ratio.
`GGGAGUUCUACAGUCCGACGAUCUGUAUGUAGAGAAAAAUUUUCAUUGACCCCCCCCAUUGUGAAAUUCCCUAGCAAUUUAUUUAGAAUCUUAAAUUUUCUAAUUAAAGCUCAUUGUAUUAGUCAUUUUUAGCAUAAUUAAAACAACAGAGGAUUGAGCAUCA` gave a bound/input enrichment of 2.77 ratio.
With `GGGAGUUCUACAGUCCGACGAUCAGUACUUAAGCCAAGAGUGAUUCUAAAAUACUAUUUAUUUGUGUUCUGUACGUUGGUACAUAACACCAUCAACCUCACACUGUUCUUGAAUUUUUAUUUUUUUGAAGGUUGGGGGUGAGUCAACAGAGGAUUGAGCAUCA` the bound/input enrichment was 0.418 ratio.
`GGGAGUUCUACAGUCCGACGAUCUUUUUAUUGAUCAGGUCUGUAAAUGUGUACUAGAAAAUCAGAGUUUAUUUAUAAAUAGAAUAGUUUAUUUAAAGAGGUAUUUUCCUCCUUGAUAUCAUGGUAUGCAUAAUCCUGUGUUACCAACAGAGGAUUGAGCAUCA` has a bound/input enrichment of 0.422 ratio.
With `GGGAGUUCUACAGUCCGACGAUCCAACUCCAUGGUUGAAGGUUCAGAACUCAGGAAAGUUCGAUCCAACUCUAGAAUAUACCACCGGUACUUCCUUUUAGAUGCAGAUAUGCAAUCUCUGCGUUGGGAGCCUUCAAAGAAAGACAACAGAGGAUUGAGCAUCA` the bound/input enrichment was 0.273 ratio.

Other studies, line by line
`NTAPSLTVPECAICLQTCVHPVSLPCKHVFCYLCVKGASWLGKRCALCRQEIPEDFLDK (RNF146 RING domain (UniProt Q9NTX7))`: “lacZ reporter activity” 0 (UBE2D4 UBC core domain (UniProt Q9Y2X8); yeast two-hybrid; yeast; mostly zero background; relative to: not given, higher = stronger interaction).

Repeated from above (sample 2):
Under “normalised enrichment score”, `A6F` is recorded as 0.216.
`A6K`: “normalised enrichment score” 1.56.
`L7Y`: “normalised enrichment score” 0.456.
`R4V` — result for “normalised enrichment score”: 3.25.
`T9Q` — result for “normalised enrichment score”: 2.56.
`S2N` — result for “normalised enrichment score”: 2.24.
